Results gathered from unrelated publications.
Parts stem from different laboratories: compare values within a part only.
Chain of UniProt Q13557 (whole entry, looked up): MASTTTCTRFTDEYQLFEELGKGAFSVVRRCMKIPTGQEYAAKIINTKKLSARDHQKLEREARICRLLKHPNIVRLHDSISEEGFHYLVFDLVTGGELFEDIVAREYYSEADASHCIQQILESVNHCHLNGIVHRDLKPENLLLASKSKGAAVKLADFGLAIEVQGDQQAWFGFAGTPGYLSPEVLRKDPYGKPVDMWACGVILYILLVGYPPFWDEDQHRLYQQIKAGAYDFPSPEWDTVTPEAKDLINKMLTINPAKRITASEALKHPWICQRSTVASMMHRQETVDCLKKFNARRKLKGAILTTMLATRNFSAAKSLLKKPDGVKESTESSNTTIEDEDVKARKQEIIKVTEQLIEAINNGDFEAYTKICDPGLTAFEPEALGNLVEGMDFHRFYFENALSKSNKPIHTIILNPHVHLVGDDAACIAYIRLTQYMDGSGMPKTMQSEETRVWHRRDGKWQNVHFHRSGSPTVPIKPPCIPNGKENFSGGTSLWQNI
Chain of UniProt Q16513 (whole entry, looked up): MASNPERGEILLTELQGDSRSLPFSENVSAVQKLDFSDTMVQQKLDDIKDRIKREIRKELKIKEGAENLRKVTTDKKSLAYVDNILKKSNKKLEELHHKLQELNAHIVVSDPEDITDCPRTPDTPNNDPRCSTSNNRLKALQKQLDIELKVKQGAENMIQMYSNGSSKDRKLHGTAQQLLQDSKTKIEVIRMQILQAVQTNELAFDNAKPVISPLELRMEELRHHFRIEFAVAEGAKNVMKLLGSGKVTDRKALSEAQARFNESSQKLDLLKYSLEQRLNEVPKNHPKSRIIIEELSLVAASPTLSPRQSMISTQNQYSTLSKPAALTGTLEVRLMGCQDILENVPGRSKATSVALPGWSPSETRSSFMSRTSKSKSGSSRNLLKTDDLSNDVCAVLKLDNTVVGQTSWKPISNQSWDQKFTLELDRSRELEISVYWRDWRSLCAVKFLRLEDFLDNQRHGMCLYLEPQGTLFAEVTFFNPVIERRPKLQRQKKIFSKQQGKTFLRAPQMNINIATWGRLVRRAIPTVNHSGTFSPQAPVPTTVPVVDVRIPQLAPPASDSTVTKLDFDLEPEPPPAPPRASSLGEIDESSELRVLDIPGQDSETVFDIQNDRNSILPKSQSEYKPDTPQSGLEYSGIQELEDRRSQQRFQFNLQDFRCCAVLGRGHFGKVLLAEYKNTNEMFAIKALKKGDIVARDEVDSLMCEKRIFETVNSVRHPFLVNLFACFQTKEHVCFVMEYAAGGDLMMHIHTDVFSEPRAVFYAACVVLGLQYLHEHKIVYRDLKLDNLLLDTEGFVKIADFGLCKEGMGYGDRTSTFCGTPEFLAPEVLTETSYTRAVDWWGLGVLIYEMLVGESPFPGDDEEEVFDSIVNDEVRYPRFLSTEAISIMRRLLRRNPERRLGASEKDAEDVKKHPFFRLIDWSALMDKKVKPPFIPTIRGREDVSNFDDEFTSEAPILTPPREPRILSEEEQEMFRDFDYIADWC
Chain of UniProt P15735 (whole entry, looked up): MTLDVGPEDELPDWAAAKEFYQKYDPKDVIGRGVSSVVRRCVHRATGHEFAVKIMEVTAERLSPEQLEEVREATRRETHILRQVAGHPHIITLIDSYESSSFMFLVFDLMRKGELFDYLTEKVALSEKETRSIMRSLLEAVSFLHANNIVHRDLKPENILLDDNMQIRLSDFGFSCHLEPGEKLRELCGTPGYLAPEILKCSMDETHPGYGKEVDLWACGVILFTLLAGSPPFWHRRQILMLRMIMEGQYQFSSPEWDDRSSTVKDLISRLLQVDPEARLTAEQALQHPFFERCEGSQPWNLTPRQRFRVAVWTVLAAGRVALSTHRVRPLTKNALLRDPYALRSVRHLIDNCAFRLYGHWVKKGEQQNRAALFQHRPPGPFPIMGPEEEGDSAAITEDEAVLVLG
Chain of UniProt P07949 (whole entry, unmodified, looked up): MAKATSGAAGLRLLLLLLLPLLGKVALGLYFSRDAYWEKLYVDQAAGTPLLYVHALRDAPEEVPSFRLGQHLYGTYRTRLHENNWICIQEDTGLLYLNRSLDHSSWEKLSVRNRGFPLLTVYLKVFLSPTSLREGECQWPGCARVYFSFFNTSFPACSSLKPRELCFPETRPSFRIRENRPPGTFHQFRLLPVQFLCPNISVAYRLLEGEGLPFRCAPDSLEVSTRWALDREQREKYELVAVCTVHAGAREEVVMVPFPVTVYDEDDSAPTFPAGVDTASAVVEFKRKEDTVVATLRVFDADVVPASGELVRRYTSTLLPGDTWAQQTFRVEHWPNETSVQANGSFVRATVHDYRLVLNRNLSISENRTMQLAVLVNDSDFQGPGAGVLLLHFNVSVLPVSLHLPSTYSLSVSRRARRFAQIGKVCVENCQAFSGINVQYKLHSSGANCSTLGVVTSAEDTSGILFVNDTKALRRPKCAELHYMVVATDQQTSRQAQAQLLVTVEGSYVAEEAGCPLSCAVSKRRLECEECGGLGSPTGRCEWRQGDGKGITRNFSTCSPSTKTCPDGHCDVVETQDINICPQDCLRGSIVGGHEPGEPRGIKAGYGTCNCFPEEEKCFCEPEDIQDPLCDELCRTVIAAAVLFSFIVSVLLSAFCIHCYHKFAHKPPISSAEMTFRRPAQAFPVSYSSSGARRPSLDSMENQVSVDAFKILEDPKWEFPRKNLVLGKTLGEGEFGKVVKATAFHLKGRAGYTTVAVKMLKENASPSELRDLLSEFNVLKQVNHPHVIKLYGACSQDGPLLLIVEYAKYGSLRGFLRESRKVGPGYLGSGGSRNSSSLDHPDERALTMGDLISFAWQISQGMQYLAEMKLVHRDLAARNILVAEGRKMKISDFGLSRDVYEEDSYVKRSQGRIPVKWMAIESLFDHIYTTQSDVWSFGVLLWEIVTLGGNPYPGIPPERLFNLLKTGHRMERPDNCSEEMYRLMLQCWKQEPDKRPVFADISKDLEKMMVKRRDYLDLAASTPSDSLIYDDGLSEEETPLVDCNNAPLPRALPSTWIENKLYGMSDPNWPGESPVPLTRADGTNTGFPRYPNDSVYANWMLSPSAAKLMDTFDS
Chain of UniProt P35968 (whole entry, looked up): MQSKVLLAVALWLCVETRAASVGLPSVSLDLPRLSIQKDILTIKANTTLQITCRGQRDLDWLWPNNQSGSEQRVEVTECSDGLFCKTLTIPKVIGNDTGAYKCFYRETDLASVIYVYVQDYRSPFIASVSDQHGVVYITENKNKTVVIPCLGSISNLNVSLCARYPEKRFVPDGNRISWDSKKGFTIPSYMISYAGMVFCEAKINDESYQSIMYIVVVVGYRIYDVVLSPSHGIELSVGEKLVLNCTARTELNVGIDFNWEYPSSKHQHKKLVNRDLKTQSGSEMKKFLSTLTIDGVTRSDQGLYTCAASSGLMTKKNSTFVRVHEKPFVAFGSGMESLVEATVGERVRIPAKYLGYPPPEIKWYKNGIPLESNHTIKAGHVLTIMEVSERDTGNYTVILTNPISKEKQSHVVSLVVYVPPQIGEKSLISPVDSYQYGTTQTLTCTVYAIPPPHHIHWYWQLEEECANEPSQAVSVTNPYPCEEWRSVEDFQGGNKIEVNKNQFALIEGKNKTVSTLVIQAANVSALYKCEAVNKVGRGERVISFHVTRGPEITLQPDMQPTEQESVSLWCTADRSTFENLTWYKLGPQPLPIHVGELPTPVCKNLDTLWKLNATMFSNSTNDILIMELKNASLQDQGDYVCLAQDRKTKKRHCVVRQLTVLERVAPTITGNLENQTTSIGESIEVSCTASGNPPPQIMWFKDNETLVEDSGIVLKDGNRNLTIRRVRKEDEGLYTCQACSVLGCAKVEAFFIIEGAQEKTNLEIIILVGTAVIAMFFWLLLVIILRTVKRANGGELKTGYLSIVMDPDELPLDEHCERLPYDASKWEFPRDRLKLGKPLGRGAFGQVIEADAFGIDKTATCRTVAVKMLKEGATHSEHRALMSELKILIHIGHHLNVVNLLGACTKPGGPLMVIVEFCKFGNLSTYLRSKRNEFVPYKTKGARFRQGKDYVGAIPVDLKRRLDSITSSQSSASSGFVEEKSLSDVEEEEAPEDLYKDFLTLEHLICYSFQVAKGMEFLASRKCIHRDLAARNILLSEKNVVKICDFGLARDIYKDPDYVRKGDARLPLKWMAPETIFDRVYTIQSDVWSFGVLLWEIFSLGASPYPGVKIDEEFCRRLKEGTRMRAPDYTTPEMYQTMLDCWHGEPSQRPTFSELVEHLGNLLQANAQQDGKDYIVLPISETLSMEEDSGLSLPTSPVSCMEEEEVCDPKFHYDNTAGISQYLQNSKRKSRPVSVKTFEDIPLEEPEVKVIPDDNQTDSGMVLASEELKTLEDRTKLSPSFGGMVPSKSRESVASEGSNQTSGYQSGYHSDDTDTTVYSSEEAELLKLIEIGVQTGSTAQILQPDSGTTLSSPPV
Chain of UniProt Q96SB4 (whole entry, looked up): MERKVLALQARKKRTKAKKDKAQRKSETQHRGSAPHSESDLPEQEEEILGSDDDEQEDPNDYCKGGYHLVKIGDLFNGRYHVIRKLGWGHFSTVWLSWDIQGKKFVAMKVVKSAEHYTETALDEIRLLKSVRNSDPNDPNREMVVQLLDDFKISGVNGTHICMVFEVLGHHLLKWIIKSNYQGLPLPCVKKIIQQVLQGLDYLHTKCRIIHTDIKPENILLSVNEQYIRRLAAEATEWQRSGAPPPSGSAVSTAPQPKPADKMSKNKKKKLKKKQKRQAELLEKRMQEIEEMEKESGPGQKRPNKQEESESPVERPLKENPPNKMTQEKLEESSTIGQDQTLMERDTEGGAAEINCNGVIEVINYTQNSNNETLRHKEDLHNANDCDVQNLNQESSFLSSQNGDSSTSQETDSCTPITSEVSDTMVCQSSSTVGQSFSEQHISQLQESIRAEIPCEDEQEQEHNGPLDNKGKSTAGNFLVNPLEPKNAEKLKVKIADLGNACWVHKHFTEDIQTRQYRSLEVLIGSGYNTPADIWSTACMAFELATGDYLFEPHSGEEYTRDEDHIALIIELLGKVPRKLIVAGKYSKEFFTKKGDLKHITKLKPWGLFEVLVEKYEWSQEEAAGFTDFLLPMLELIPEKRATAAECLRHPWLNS

Series 1
SMILES: CN(C)C(=O)Cn1cc(-c2nc([C@@](C)(c3ccc(-c4cnc(N)nc4)cc3)C3CC3)no2)cn1
Technique: competition with immobilised ligand
Concentration: 1 µM
| target | observed | remaining binding [%] |
| --- | --- | --- |
| CAMK2D (Homo sapiens, UniProt Q13557) | cell-free assay | 100 |
| RIPK4 (Homo sapiens, UniProt P57078) | cell-free assay | 93 |
| CDK11A (Homo sapiens, UniProt Q9UQ88) | binding | 100 |
| FLT3 (Homo sapiens, UniProt P36888, D835V) | cell-free assay | 72 |
| RET (Homo sapiens, UniProt P07949, M918T) | cell-free assay | 83 |
| Ribosomal protein S6 kinase alpha-3, C-terminal kinase domain (RPS6KA3, Homo sapiens, UniProt P51812) | cell-free assay | 100 |
| CDK15 (Homo sapiens, UniProt Q96Q40) | cell-free assay | 94 |
| SGK2 (Homo sapiens, UniProt Q9HBY8) | cell-free assay | 83 |
| BLK (Homo sapiens, UniProt P51451) | cell-free assay | 98 |
| KDR (Homo sapiens, UniProt P35968) | cell-free assay | 87 |
| CSNK1E (Homo sapiens, UniProt P49674) | cell-free assay | 97 |
| Macrophage colony-stimulating factor 1 receptor, autoinhibited (CSF1R, Homo sapiens, UniProt P07333) | cell-free assay | 96 |
| CDK2 (Homo sapiens, UniProt P24941) | cell-free assay | 96 |
| FLT3 (Homo sapiens, UniProt P36888, D835Y) | cell-free assay | 85 |
| WNK4 (Homo sapiens, UniProt Q96J92) | cell-free assay | 93 |
| MKNK1 (Homo sapiens, UniProt Q9BUB5) | cell-free assay | 85 |
| WEE2 (Homo sapiens, UniProt P0C1S8) | cell-free assay | 100 |
| CAMKK2 (Homo sapiens, UniProt Q96RR4) | cell-free assay | 100 |
| FLT3 (Homo sapiens, UniProt P36888, ITD) | cell-free assay | 100 |
| DDR2 (Homo sapiens, UniProt Q16832) | cell-free assay | 89 |
| Tyrosine-protein kinase JAK3, JH1 (JAK3, Homo sapiens, UniProt P52333) | cell-free assay | 95 |
| RIOK3 (Homo sapiens, UniProt O14730) | cell-free assay | 100 |
| EGFR (Homo sapiens, UniProt P00533, A750P/del747-749) | cell-free assay | 100 |
| PKN2 (Homo sapiens, UniProt Q16513) | cell-free assay | 100 |
| Aurora kinase A (AURKA, Homo sapiens, UniProt O14965) | cell-free assay | 73 |

Series 2
Compound: CN1CCN(C(=O)c2ccc(NC(=O)Nc3ccc(N(C)c4ccnc(Nc5ccc(CS(C)(=O)=O)cc5)n4)cc3)cc2)CC1
Observed: binding
Concentration: 1 µM
| target | technique | remaining binding [%] |
| --- | --- | --- |
| CAMK1G (Homo sapiens, UniProt Q96NX5) |  | 88 |
| Insulin receptor (INSR, Homo sapiens, UniProt P06213) |  | 61 |
| SRMS (Homo sapiens, UniProt Q9H3Y6) | competition with immobilised ligand | 77 |
| ACVR1B (Homo sapiens, UniProt P36896) | competition with immobilised ligand | 77 |
| AKT1 (Homo sapiens, UniProt P31749) |  | 100 |
| Myosin-IIIb (MYO3B, Homo sapiens, UniProt Q8WXR4) | competition with immobilised ligand | 23 |
| PHKG2 (Homo sapiens, UniProt P15735) |  | 100 |
| PKMYT1 (Homo sapiens, UniProt Q99640) | competition with immobilised ligand | 96 |
| PIK3CA (Homo sapiens, UniProt P42336, C420R) |  | 100 |
| PRKACB (Homo sapiens, UniProt P22694) | competition with immobilised ligand | 100 |
| SRPK1 (Homo sapiens, UniProt Q96SB4) |  | 2.3 |
| Ribosomal protein S6 kinase alpha-5, C-terminal kinase domain (RPS6KA5, Homo sapiens, UniProt O75582) | competition with immobilised ligand | 87 |
| PIM3 (Homo sapiens, UniProt Q86V86) |  | 100 |
| STK38L (Homo sapiens, UniProt Q9Y2H1) |  | 100 |

Series 3
Sample: hydrocarbon/water
| SMILES | logD |
| --- | --- |
| CCOC(=O)[C@@H]1CSCC(=O)N[C@H](CC)C(=O)N(CC(C)C)CC(=O)N[C@@H](CC(C)C)C(=O)N2CCC[C@@H]2C(=O)N(C)[C@@H](C)C(=O)N[C@H](CC(C)C)C(=O)N(C)[C@H](C)C(=O)N[C@@H](CC(C)C)C(=O)N1C | 0.791 |
| CCC[C@H]1NC(=O)CSC[C@@H](C(=O)OCC)N(C)C(=O)[C@H](CC(C)C)NC(=O)[C@@H](C)N(C)C(=O)[C@H](CC(C)C)NC(=O)[C@H](C)N(C)C(=O)[C@H]2CCCN2C(=O)[C@@H](CC(C)C)NC(=O)CN(CCC)C1=O | 0.457 |
| CCCN1CC(=O)N[C@@H](CC2CCCCC2)C(=O)N(C)[C@@H](C)C(=O)N[C@@H](CC(C)C)C(=O)N(C)Cc2cn(nn2)CC(=O)N[C@@H](CC(C)C)C(=O)N(C)[C@@H](C)C(=O)N[C@@H](CC(C)C)C(=O)N2CCC[C@@H]2C1=O | 1.15 |
| CC(C)C[C@@H]1NC(=O)[C@H](Cc2ccc(O)cc2)NC(=O)[C@H]2CCCN2C(=O)[C@H](CC2CCCCC2)NC(=O)[C@H](CC2CCCCC2)NC(=O)[C@@H](CC(C)C)NC1=O | 2 |
| CCC[C@H]1NC(=O)[C@H](CC(C)C)NC(=O)[C@H](Cc2ccccc2)NC(=O)[C@H]2CCCN2C(=O)[C@H](CC2CCCCC2)NC(=O)[C@H](CC2CCCCC2)NC1=O | 2.82 |
| CC(C)C[C@@H]1NC(=O)[C@H](Cc2ccc(O)cc2)NC(=O)[C@H]2CCCN2C(=O)[C@H](CC2CCCCC2)NC(=O)[C@H](CC2CCCCC2)NC(=O)[C@@H](C)NC1=O | 0.96 |
| CC(C)C[C@@H]1NC(=O)[C@H](C)N(C)C(=O)[C@H](CC2CCCCC2)NC(=O)[C@H](C)N(C)C(=O)[C@H]2CCCN2C(=O)[C@H](CC2CCCCC2)NC(=O)CN(CC(C)C)C(=O)[C@H](C2CCCCC2)NC(=O)Cn2cc(nn2)CN(C)C1=O | 2.67 |
| CC[C@H]1NC(=O)[C@H](CC(C)C)NC(=O)[C@H](Cc2ccc(O)cc2)NC(=O)[C@H]2CCCN2C(=O)[C@H](CC2CCCCC2)NC(=O)[C@H](CC2CCCCC2)NC1=O | 1.28 |
| CC(C)C[C@@H]1NC(=O)CN(Cc2ccc3c(c2)OCO3)C(=O)[C@H](C)NC(=O)[C@H](CC(C)C)N(C)C(=O)[C@H]2CCCN2C(=O)[C@H](Cc2ccccc2)NC(=O)CN(CC2CCOCC2)C(=O)[C@H](C)NC(=O)[C@H](CC(C)C)N(C)C(=O)[C@H]2CCCN2C1=O | 2.09 |
| CCC[C@@H]1NC(=O)[C@H](C)N(C)C(=O)[C@H](CC(C)C)NC(=O)Cn2cc(nn2)CN(C)C(=O)[C@H](CC(C)C)NC(=O)[C@H](C)N(C)C(=O)[C@H](CC)NC(=O)[C@H](CC)N(C)C(=O)[C@H]2CCCN2C1=O | -1.75 |
| CCCN1CC(=O)N[C@@H](CC(C)C)C(=O)N2CCC[C@@H]2C(=O)N(C)[C@@H](C)C(=O)N[C@@H](CC)C(=O)N(C)[C@@H](C)C(=O)N[C@@H](CC(C)C)C(=O)N(C)Cc2cn(nn2)CC(=O)N[C@@H](CC(C)C)C1=O | -1.36 |
| CCOC(=O)[C@@H]1CSCC(=O)N[C@H](CC)C(=O)N(C)[C@@H](C)C(=O)N[C@H](CC(C)C)C(=O)N2CCC[C@@H]2C(=O)N(CC)CC(=O)N[C@H](CC(C)C)C(=O)N(C)[C@@H](C)C(=O)N[C@@H](CC(C)C)C(=O)N1C | 0.611 |
| CC(C)C[C@@H]1NC(=O)[C@H](C)N(C)C(=O)[C@H](CC2CCCCC2)NC(=O)[C@H](C)N(C)C(=O)[C@H]2CCCN2C(=O)[C@H](CC2CCCCC2)NC(=O)CN(CC(C)C)C(=O)[C@H](CC(C)C)NC(=O)Cn2cc(nn2)CN(C)C1=O | 2.26 |

Other studies, line by line
| Structure (SMILES) | cell line | technique | concentration | time | baseline | endpoint | result |
| --- | --- | --- | --- | --- | --- | --- | --- |
| O=C1Nc2cc(Br)ccc2/C1=C1/Nc2ccccc2/C1=N\O | HH | CCK-8 | 2 µM | 48 h | untreated | viability | 64.3% |
